Values quoted from earlier work, collected from citations in different studies.
± marks the error that the study gave.

SMILES	assay	test system	conditions	how to read	quantity	result
CC[C@H](C)[C@H](NC(=O)[C@H](CC(C)C)NC(=O)[C@H](Cc1c[nH]cn1)NC(=O)[C@H](Cc1c[nH]cn1)NC(=O)[C@H](CC(C)C)NC(=O)[C@H](Cc1c[nH]c2ccccc12)NC(=O)[C@H](Cc1ccccc1)NC(=O)[C@H](CCCNC(=N)N)NC(=O)[C@H](CCCNC(=N)N)NC(=O)[C@H](CCCNC(=N)N)NC(=O)[C@H](CC(C)C)NC(=O)[C@H](CC(=O)O)NC(=O)[C@H](CCC(N)=O)NC(=O)[C@@H](NC(=O)[C@H](CO)NC(=O)[C@H](CCCCN)NC(=O)[C@@H](Cc1c[nH]c2ccccc12)NC(=O)[C@H](CC(C)C)NC(=O)[C@H](CC(=O)O)NC(=O)[C@H](Cc1c[nH]cn1)NC(=O)[C@H](CC(C)C)NC(=O)[C@@H](N)CC(C)C)[C@@H](C)CC)C(=O)N[C@@H](C)C(=O)N[C@@H](CCC(=O)O)C(=O)N[C@H](C(=O)N[C@@H](Cc1c[nH]cn1)C(=O)N[C@H](C(=O)N[C@@H](C)C(=O)N[C@@H](CCC(=O)O)C(=O)N[C@@H](Cc1ccc(O)cc1)C(N)=O)[C@@H](C)O)[C@@H](C)CC	–	mouse	1000 nmol/kg daily, twice daily injection, P7	–	serum phosphate level	decreased
CCCCCCCCCCCCCCCC(=O)N[C@@H](CCC(=O)NCCCC[C@H](NC(=O)[C@H](CC(=O)O)NC(=O)[C@H](CO)NC(=O)[C@@H](NC(=O)[C@H](Cc1ccccc1)NC(=O)[C@@H](NC(=O)CNC(=O)[C@H](CCC(N)=O)NC(=O)[C@H](CO)NC(=O)[C@@H](N)Cc1c[nH]cn1)[C@@H](C)O)[C@@H](C)O)C(=O)N[C@@H](CO)C(=O)N[C@@H](CCC(=O)O)C(=O)N[C@@H](Cc1ccc(O)cc1)C(=O)N[C@@H](CC(C)C)C(=O)N[C@@H](CC(=O)O)C(=O)N[C@@H](CO)C(=O)N[C@@H](CCC(=O)O)C(=O)N[C@@H](CCCNC(=N)N)C(=O)N[C@@H](C)C(=O)N[C@@H](CCCNC(=N)N)C(=O)N[C@@H](CC(=O)O)C(=O)N[C@@H](Cc1ccccc1)C(=O)N[C@H](C(=O)N[C@@H](C)C(=O)N[C@@H](Cc1c[nH]c2ccccc12)C(=O)N[C@@H](CC(C)C)C(=O)N[C@@H](CCC(=O)O)C(=O)N[C@@H](C)C(=O)NCC(=O)NCC(=O)O)C(C)C)C(=O)O	–	type 2 diabetes CKD patients	50 to 300 µg	relative to: placebo	body weight reduction	3.41 kg
C=Cc1c(C)c2cc3nc(c(CC(=O)[O-])c4[n-]c(cc5nc(cc1[n-]2)C(C)=C5CC)c(C)c4C(=O)[O-])C(CCC(=O)[O-])C3C.[Cu+2].[Na+].[Na+].[Na+] (stereo not drawn)	–	patients with pelvic malignancies	oral, dose not given	–	patients with cystitis prevented	> 80%
COC1=C(C)OC(C)C1=O (stereo not drawn)	–	human, water	–	–	odour detection threshold	56 µg/kg
N#Cc1ccnc(N2C(=O)CC[C@H]2C(=O)N(c2cncc(F)c2)[C@H](C(=O)NC2CC(F)(F)C2)c2ccccc2Cl)c1	–	relapsed/refractory mIDH1 AML patients	dose not given, trial, interim	–	median complete response duration	9.3 months
COc1ccc2c(c1)CN(C(=O)CCN1CCC(Cc3ccccc3)CC1)CC[S+]2[O-] (stereo not drawn)	–	dog AF model	dose not given	relative to: animals	AF conversion	100%
CCOC(=O)C1(C)C=C(C(=O)OC)C(=O)CC1 (stereo not drawn)	GSH adduct formation	PBS	pH 7.4, 37 °C, together with: GSH 10 mM	–	rate constant	0.0007 min⁻¹
Cc1sc(-c2ccc(C(F)(F)F)cc2)nc1-c1nn[nH]c1C#N	–	ZDF rat	4 mg/kg/day, 6 weeks	–	HbA1c change from baseline	2.88 ± 0.21%
COc1ccc(Nc2nc(Nc3ccc(OCC[18F])cc3)ncc2Br)cc1	–	S180 tumour-bearing mice, bone	intravenous, 30 min	–	tissue uptake	3.79 ± 0.42 %ID/g

Some of these lines once more:
SMILES	assay	test system	conditions	how to read	quantity	result
COc1ccc(Nc2nc(Nc3ccc(OCC[18F])cc3)ncc2Br)cc1	–	S180 tumour-bearing mice, bone	intravenous, 30 min	–	tissue uptake	3.79 ± 0.42 %ID/g
